# Published values pooled from the literature.
# Each numbered part is a random draw from the data of one study; scales do not carry over between parts. Substitutions count along the parent as printed.

# Block 1 — technique: RNA Bind-n-Seq; form: RNA; matrix: in vitro; concentration: 200 nM; setting: whole 134-nt RNA, ends assumed; together with: 150 mM LiCl; relative to: input library; reading: higher = stronger binding; each molecule: 7-deaza-guanosine replaces G
# Target: Fragile X messenger ribonucleoprotein 1, C-terminal low-complexity region (Fmr1, Mus musculus, UniProt P35922)
# Constant ends, left off below: GGGAGUUCUACAGUCCGACGAUC … UGGAAUUCUCGGGUGUCAAGG
Strand,log2 enrichment
UCAAGUCCUGUGCUACACAUCGUAUGUACCGAAUCGGGUUGGGUUGGGGUUGGGGAAAGUAUUAUGUUACGCCGUUCGGAUCUGCACUUC,-0.738
UCAAGUCCUGUGCUACACAUCGUAUGUACCGAAUCGGUUGGGGUUGGGUUGGGGAAAGUAUUAUGUUACGCCGUUCGGAUCUGCACUUCC,-0.684
ACCAUGCAGGCGGGCAUCUUUGGGAAGUGGGGCAAGGGGGGGAUAGGGAGGGGGGUAACACUUUGGGAACAGGUGGUCCCAGGUCGUUUC,1.62
CAAGUCCUGUGCUACACAUCGUAUGUACCGAAUCGGUUUUGGUUUUGGGGUUUUGGAAAGUAUUAUGUUACGCCGUUCGGAUCUGCACUU,-1.94
AGUCCUGUGCUACACAUCGUAUGUACCGAAUCGGGAAAGGGAAAGGGUUUUUUUGGGAAAGUAUUAUGUUACGCCGUUCGGAUCUGCACU,-1.78
UCCUCAAGUCCUGUGCUACACAUCGUAUGUACCGAAUCGGGUGGUGGUGGGAAAGUAUUAUGUUACGCCGUUCGGAUCUGCACUUCCAGC,0.0771
GUCCUGUGCUACACAUCGUAUGUACCGAAUCGGUUUUUUGGGUUUUUUGGGUUUUUUGGAAAGUAUUAUGUUACGCCGUUCGGAUCUGCA,-1.3
CAAGUCCUGUGCUACACAUCGUAUGUACCGAAUCGGUUUUUGGUUUUUGGAAAGGAAAGUAUUAUGUUACGCCGUUCGGAUCUGCACUUC,-1.11
UCCUGUGCUACACAUCGUAUGUACCGAAUCGGGGAAAAAAAGGGGAGGGGUUUUUGGGGAAAGUAUUAUGUUACGCCGUUCGGAUCUGCA,0.402
UAACUUUAGAGGAGGAUCUGAUGGAUAUGGCAGUGGACGUGAAUUUGGGGAUGGCUAUAAUGGGUAUGGAGGAGGACCUGGAGGUGGCAA,-0.783
UGGGAGGUGAAUUUUGUUUAUUUUUUUAGCUCAUUUCCAGGGGUGGGAAUUUUUUUUUAAUAUGUGUCAUGAAUAAAGUUGUUUUUGAAA,-0.421

# Block 2 — technique: DHFR PCA, deep sequencing; matrix: yeast; together with: (+)-ABA 2500 µM; relative to: wild-type fitted maximum; reading: higher = stronger binding
# Target: ABI1, truncated, D143A, DHFR fusion (Arabidopsis thaliana)
# Setting: methotrexate growth selection, single substitutions
# Starting sequence: PYL1, truncated, DHFR fusion (Arabidopsis thaliana); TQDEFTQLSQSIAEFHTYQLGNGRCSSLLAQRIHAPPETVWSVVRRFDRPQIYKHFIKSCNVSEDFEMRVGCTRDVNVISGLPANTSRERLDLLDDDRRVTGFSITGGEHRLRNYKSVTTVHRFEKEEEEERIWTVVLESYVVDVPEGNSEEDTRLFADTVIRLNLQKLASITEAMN
Change,relative binding score [%]
N165A,54.2
Y141P,-4.89
R155S,90.3
V121T,83.3
S104T,101
V118M,105
R113I,105
R45D,-21.8
E151M,97.9
V161G,-6.27
T106P,71.5
Y53H,97.6
Q51N,99.7
S104N,81.6
N177S,89.1
T119V,99.1
R90Y,84.4
N77V,95.5
S87E,2.06
I79S,97.7
P146C,87.4
V145R,87.6
T135V,87.3
T86F,91.6
R90Q,97.5

# Block 3 — target: CCNE1, cyclin fold, Cln2 fusion (human); technique: yeast growth competition, sequencing; matrix: yeast; setting: strong parent motif; relative to: not given; reading: higher = stronger binding
# Starting sequence: RBL2 docking peptide (human); STTRRRLFVENDS; partner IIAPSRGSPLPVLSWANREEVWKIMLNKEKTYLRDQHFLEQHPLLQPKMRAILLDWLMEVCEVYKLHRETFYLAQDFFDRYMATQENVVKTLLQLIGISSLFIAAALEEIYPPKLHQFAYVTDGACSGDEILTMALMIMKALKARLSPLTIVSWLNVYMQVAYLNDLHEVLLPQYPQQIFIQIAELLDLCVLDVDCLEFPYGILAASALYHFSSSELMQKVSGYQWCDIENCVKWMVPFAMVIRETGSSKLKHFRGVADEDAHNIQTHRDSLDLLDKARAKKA
Change,normalised enrichment score
PTTRRRLFVENDS [S1P],5.7
STTVRRLFVENDS [R4V],5.13
STTRRRLFFENDS [V9F],5.69
NTTRRRLFVENDS [S1N],5.9
STTRRRLWVENDS [F8W],1.77
STTRRRKFVENDS [L7K],-0.782
STTRRRLKVENDS [F8K],0.251
SITRRRLFVENDS [T2I],5.12
STTRRRLFPENDS [V9P],4.43
STTTRRLFVENDS [R4T],1.33
STTRRRLFMENDS [V9M],6
STTRRRLVVENDS [F8V],-0.165
STTDRRLFVENDS [R4D],-0.912
STTRRRCFVENDS [L7C],0.237
STTCRRLFVENDS [R4C],6
STTRARAFVENDS [R5A L7A],-0.128
STTRRRLFVEEDS [N11E],5.93
STTRRSLFVENDS [R6S],0.575

# Block 4 — target: UBE2D1 UBC core domain (UniProt P51668); technique: yeast two-hybrid; matrix: yeast; setting: mostly zero background; relative to: not given; reading: higher = stronger interaction
# B1: MID1 RING domain (UniProt O15344); chain METLESELTCPICLELFEDPLLLPCAHSLCFNCAHRILVSHCATNESVESITAFQCPTCRHVITLSQRGL
# B2: TRIM63 RING domain (UniProt Q969Q1); chain PMENLEKQLICPICLEMFTKPVVILPCQHNLCRKCANDIFQAANPYWTSRGSSVSMSGGRFRCPTCRHEVIMDRHGV
# B3: IRF2BPL RING domain (UniProt Q9H1B7); chain SPMANSGPLCCTICHERLEDTHFVQCPSVPSHKFCFPCSRESIKAQGATGEVYCPSGEKCPLVGSNVP
# B4: TRIM69 RING domain (UniProt Q86WT6); chain VIQDITMELHCPLCNDWFRDPLMLSCGHNFCEACIQDFWRLQAKETFCPECKMLCQYNNCTF
# Construct (chain): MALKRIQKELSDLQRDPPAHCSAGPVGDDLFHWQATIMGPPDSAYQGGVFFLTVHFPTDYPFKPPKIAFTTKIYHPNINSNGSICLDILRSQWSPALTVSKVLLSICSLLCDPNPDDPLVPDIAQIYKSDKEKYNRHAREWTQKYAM
Sequence,lacZ reporter activity
B1 (MID1 RING domain),0
FPEHFVKSISCQICEHILADPVETNCKHVFCRVCILRCLKVMGSYCPSCRYPCFPTDLES (RAG1 RING domain (UniProt P15918)),0
YWAMDSTFELCKICAESNKDVKIEPCGHLLCSCCLAAWQHSDSQTCPFCRCEIKGWEAVS (CBLC RING domain (UniProt Q9ULV8)),0
VTLSLTLPITCHICLGKVRQPVICINNHVFCSICIDLWLKNNSQCPACRVPITPENPCK (OBI1 RING domain (UniProt Q5W0B1)),0
QLRRLQEERTCKVCMDKEVSVVFIPCGHLVVCQECAPSLRKCPICRGIIKGTVRTF (BIRC2 RING domain (UniProt Q13490)),0
QLRRLQEERTCKVCMDKEVSIVFIPCGHLVVCKDCAPSLRKCPICRSTIKGTVRTF (BIRC3 RING domain (UniProt Q13489)),0
B2 (TRIM63 RING domain),0
DAIPSLSECQCGICMEILVEPVTLPCNHTLCKPCFQSTVEKASLCCPFCRRRVSSWTRYH (RNF168 RING domain (UniProt Q8IYW5)),0
B3 (IRF2BPL RING domain),0
PEELQAMDNVCIICREEMVTGAKRLPCNHIFHTSCLRSWFQRQQTCPTCRMDVLRASLPA (SYVN1 RING domain (UniProt Q86TM6)),0
B4 (TRIM69 RING domain),0
DDENSDNSNECVVCLSDLRDTLILPCRHLCLCTSCADTLRYQANNCPICRLPFRALLQIR (MGRN1 RING domain (UniProt O60291)),0

# Block 5 — technique: RNA Bind-n-Seq; form: RNA; matrix: in vitro; concentration: not given; relative to: input RNA pool; reading: higher = stronger binding
# Target: RING finger protein unkempt homolog, zinc fingers 1-6, GST-SBP tag (UNK, Homo sapiens, UniProt Q9C0B0, residues 30-357)
# Chain of UniProt Q9C0B0 (30-357, looked up): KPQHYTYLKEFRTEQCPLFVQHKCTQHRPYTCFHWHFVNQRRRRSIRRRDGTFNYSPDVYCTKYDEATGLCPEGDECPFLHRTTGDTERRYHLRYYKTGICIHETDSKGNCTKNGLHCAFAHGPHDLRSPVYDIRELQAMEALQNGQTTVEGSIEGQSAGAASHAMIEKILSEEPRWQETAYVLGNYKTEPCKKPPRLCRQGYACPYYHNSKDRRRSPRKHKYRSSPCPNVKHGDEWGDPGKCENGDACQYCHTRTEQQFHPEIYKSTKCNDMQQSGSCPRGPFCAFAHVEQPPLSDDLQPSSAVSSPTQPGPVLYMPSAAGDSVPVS
# Setting: RNA with constant flanks, human-mouse chimeric sites, ends assumed
# Constant ends, left off below: GGGAGUUCUACAGUCCGACGAUC … CAACAGAGGAUUGAGCAUCA
Strand,bound/input enrichment
GGGACUGAUUCAUUCCAAGGACAGGCCGCCCAGUCUGAUGCCUGGACUGAUGACAGUAUGGAAGGGCCUAGUCAAAAUGUUGAAGCUGAGUCAAUUCAGGAUGCCAUGAGUAUGGAAGAG,0.302 ratio
CUGAGGAAUACCACUGAGAGACCUUAAAAGAAUCAUUUGAGGGCUCUGUUCGUGCAAGAAUAGUCACUGAUCGGGAAACUGGUUCUUCCAAAGGGUUUGGUUUUGUAAGACUUCAACGUG,0.331 ratio
ACUCAGAGAUCCACCUCAAUUGAAGUGGGGAGUAAAGGUGUGGCCACCACACCUAACUUGAUGGAUAUUUUAUAAAGUUAAUAUGAAUCUUCCUGUUCGUCCAGGGAAGAAAGAUUUGUU,0.355 ratio
CACAGAGGAGAUCUGCUGUUCCUCACAAAUUUCCGGGAGGACCCCAUCAGAGCUGGUGAAAUAGUUGUUUUUAAGGUUGAAGGAAGAGACAUUCCAAUAGUUCACAGAGUAAUCAAGGUU,2.87 ratio
AGAGAUAAGACAUCCAGGAACAUGCGAGGCUCCCGGAUGAAUGGACUGCCUAGCCCCACUCACAGCGCCCACUGUAGCUUCUACCGAACCAGAACCUUGCAGGCACUAAGUAAUGAGAAG,0.156 ratio
GCUGGAUCUUCUAAGUACCAGUGGGACAUUAUGAAAUCCCUUGGGCUCUCUGAUGACGACAUAGUGAAGUUUUCUGAAGCAGAACAUUGGCUUGAUUAUUUCCCACCACUGGCCGUUCAG,0.228 ratio
UCUUUAAAAAAAAAAUUACCUUUUCUGACAGUGCUUUCCCUCCCAUAGAUCCACGUUCAAGCUCAAAGAGCAAAGGCUUUGCACGGAGCUCAAACAUAAAAGAAAGAAAGAUUUCUGAGA,0.636 ratio
UCUUAACUUAUUCAUUUAACUUAUUUUUAUAGCUAGAUAAAUAUUGUUAGUCUUAGACAAUAGCUCACAUUUUUUGAAAAGCAUGCUCUCCCUGUCCAUUUGUCUUAUAACAUGACCCAG,40.7 ratio
GUAAUGGACGUCAACACUGCUCUACAAGAGGUGCUGAAGACCGCCCUCAUCCACGAUGGCCUAGCACGUGGAAUUCGCGAAGCUGCCAAAGCCUUAGACAAGCGCCAAGCCCAUCUGUGU,1.29 ratio
GAGUCGAGCAAACUUGAAACAAUUCGUUAUCUUGCAGCCUCAGUGUUCACUUGCUUGGCGAUAGCAUAUUGGGAUUUUAUAGAUUCUAAGGAGAACUGACGAUGAUGCUGCCGCUGCUGC,0.448 ratio
CGCCUGGAUGAGGCGGGUGUCACAGAUGAAGUGCUAGAUUCUGCCAUGCAAGCCUUCUUACUAGAAAUCAUUGUUAAACAUGGGGAGCCGGCACCUUAUUUAUGUAACAAAGAUCCGUUU,0.219 ratio

# Repeated from above (block 3):
Change,normalised enrichment score
SITRRRLFVENDS [T2I],5.12
STTRRRLFPENDS [V9P],4.43
STTTRRLFVENDS [R4T],1.33
STTRRRLFMENDS [V9M],6
